Experimental data collected from several papers.
Each numbered part is a random draw from the data of one study; scales do not carry over between parts.
UniProt P10721, sequence (whole entry, unmodified, looked up): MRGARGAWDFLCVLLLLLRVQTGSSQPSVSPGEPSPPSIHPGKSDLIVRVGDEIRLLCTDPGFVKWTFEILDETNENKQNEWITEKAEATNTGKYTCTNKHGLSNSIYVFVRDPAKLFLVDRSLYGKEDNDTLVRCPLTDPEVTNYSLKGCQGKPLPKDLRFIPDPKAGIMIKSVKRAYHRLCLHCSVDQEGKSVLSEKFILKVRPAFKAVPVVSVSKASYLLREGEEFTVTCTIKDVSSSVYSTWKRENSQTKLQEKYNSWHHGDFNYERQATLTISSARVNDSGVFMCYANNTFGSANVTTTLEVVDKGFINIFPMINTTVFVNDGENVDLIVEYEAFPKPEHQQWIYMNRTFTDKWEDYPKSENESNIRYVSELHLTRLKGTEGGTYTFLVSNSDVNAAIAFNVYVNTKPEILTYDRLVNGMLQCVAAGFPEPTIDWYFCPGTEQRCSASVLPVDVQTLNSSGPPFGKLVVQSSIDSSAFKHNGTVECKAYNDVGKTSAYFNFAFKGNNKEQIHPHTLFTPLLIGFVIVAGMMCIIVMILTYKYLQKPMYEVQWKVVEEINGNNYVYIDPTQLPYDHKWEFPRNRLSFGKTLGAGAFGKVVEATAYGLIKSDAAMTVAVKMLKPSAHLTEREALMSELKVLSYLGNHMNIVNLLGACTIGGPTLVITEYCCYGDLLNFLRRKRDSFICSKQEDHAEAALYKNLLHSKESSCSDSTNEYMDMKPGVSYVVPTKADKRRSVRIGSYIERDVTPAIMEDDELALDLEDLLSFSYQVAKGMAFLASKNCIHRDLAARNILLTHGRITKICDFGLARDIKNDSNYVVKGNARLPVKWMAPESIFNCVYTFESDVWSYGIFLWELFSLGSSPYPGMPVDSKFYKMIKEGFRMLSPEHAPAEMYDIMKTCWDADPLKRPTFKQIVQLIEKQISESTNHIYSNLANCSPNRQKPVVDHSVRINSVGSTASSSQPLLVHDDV
UniProt Q8NE63, sequence (whole entry, looked up): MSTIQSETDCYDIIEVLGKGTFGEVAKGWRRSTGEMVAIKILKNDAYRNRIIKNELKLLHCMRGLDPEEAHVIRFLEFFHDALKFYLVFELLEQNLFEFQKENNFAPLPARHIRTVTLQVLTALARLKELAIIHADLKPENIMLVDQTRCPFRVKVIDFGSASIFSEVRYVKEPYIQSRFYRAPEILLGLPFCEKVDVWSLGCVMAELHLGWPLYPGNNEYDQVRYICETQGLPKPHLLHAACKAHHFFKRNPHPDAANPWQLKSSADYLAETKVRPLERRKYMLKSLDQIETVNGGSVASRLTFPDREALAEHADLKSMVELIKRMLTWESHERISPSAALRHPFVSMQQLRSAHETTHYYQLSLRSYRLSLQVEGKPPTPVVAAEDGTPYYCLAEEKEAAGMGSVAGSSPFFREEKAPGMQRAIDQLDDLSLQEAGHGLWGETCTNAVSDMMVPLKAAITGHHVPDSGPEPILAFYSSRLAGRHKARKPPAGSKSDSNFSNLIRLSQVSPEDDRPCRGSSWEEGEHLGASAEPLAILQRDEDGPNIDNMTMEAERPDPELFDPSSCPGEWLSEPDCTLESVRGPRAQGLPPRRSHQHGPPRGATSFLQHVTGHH
UniProt P42336, sequence (whole entry, unmodified, looked up): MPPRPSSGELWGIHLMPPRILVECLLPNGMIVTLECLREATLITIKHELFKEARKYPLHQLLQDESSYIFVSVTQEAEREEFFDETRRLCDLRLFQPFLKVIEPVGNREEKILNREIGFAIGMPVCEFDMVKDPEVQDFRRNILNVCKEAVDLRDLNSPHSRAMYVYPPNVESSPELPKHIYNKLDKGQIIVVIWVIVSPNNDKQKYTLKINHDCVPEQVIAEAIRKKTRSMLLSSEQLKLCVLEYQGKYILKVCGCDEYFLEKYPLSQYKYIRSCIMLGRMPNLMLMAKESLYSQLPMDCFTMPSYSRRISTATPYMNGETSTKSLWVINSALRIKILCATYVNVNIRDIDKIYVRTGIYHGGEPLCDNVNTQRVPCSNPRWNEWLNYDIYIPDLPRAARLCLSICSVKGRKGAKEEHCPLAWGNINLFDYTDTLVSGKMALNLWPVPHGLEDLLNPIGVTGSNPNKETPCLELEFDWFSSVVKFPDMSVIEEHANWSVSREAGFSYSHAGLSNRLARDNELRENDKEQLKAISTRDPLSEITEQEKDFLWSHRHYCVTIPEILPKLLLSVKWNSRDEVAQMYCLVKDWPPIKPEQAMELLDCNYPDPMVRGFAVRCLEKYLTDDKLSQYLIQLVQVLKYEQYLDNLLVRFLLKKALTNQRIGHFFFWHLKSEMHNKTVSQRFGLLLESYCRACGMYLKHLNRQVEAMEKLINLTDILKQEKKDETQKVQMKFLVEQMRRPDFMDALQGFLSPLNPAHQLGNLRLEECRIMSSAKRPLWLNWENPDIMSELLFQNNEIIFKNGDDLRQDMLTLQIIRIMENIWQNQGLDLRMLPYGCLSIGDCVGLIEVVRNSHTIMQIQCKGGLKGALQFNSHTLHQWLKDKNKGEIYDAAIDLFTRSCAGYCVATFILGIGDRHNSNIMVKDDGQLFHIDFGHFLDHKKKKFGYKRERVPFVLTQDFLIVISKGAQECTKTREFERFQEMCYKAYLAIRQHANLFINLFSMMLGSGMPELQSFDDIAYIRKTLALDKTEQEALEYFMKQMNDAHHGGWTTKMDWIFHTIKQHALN
UniProt Q15349, sequence (whole entry, looked up): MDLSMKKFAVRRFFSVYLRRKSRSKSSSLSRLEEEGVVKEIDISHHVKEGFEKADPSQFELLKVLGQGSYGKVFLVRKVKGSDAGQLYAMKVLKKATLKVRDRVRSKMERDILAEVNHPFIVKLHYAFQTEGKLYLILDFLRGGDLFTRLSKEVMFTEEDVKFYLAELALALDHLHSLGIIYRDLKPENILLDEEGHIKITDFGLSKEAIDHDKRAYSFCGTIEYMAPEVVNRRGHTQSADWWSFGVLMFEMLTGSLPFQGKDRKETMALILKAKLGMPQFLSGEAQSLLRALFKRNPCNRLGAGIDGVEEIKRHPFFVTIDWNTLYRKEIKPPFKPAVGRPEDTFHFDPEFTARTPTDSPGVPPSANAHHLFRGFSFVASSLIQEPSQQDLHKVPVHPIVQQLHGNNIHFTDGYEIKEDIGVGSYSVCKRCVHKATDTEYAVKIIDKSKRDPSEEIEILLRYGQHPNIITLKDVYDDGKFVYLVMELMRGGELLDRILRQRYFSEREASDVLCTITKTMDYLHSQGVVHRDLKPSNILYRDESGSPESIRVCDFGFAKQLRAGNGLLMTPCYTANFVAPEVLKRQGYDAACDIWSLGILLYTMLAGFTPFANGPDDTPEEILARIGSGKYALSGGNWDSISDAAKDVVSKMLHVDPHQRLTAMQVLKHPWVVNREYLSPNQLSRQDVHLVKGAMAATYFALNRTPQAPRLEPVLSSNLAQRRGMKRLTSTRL
UniProt Q15208, sequence (whole entry, looked up): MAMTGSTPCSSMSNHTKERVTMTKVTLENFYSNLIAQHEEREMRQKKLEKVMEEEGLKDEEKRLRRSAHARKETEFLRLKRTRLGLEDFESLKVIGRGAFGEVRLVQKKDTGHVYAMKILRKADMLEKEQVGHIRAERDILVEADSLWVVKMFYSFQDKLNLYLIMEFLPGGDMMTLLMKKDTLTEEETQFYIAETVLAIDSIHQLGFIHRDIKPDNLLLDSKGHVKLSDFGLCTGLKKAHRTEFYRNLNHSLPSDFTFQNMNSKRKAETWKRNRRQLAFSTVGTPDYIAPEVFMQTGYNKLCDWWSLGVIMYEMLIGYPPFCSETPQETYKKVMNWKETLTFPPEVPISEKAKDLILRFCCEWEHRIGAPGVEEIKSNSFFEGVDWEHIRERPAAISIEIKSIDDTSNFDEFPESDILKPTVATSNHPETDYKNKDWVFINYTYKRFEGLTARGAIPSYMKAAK
UniProt Q9UBE8, sequence (whole entry, looked up): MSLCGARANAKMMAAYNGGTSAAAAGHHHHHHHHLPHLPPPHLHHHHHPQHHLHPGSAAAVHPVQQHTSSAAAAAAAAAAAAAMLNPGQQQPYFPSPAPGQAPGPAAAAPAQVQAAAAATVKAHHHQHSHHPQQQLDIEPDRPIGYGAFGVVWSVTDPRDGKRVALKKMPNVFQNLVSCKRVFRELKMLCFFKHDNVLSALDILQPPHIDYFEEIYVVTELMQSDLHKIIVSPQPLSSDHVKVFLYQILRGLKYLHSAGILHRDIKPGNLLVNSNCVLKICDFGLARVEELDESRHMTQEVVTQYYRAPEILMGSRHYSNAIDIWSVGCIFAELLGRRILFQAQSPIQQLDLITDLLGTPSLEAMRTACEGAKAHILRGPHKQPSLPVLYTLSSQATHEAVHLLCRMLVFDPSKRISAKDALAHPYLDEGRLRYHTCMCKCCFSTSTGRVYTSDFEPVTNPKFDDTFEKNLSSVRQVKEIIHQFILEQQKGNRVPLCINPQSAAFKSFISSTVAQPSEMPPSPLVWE
UniProt P11802, sequence (whole entry, looked up): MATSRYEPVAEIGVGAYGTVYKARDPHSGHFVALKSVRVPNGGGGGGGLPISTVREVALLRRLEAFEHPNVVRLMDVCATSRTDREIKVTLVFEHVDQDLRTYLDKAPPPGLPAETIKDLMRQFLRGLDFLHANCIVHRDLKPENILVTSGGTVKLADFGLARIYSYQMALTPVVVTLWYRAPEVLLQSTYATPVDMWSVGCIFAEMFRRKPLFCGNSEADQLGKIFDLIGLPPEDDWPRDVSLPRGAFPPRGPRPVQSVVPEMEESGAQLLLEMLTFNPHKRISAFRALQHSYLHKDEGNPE
UniProt P06493, sequence (whole entry, looked up): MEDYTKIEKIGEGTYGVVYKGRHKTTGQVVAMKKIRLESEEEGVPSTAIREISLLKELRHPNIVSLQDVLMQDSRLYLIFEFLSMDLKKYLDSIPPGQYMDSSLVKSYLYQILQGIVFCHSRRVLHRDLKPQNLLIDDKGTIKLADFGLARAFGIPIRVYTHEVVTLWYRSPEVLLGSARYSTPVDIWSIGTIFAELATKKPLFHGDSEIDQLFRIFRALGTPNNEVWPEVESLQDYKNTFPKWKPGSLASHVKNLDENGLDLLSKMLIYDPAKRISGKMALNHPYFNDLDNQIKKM

Block 1
Species: human
Medium: microsomes or S9
Tested at: 2 µM
Time: 0.5 h
SMILES	remaining compound [%]
COC(=O)c1ccc(C2NN(C)C3C(=O)N(C(C)C)C(=O)C23)cc1 (stereo not shown)	84
Cc1ccc2c(c1)c(N1CCCC1=O)c(C(=O)NCC1CCCO1)n2C (stereo not shown)	> 100
Cn1ccnc1COC(=O)c1cc(C(C)(C)C)n[nH]1	16.7
CC(C)(C)CNCCn1c(=S)[nH]c2c(Cl)nccc21	97.2
COc1cc2c(Nc3ccc(Br)c(C)c3)ncnc2cc1OCC1CN(C)CCO1 (stereo not shown)	34.4
COc1ccccc1CC(=O)c1ccc(O)c(O)c1O	70.7
Cc1ccc(-c2noc(CCC(=O)N(C)C)n2)c(=O)n1C(C)C	75.4
COc1ccc2cc(C(=O)OCc3ccc(-n4nc(C)cc4C)cc3)[nH]c2c1	4.37
O=c1c2ccc(F)cc2ncn1C/C=C/c1ccccc1	105
CCn1ncc(NC(=O)c2cc(C)nc3c2c(C)nn3CC)c1C	85.6
N=c1n(CCN2CCCCC2)c2ccccc2n1CC(O)c1ccccc1 (stereo not shown)	88.4
O=C(NC1CCN(Cc2cccc3c2OCO3)CC1)c1cc2ccccc2o1	33

Block 2
Structure (SMILES): COc1cc(Nc2c(C#N)cnc3cc(OCCCN4CCN(C)CC4)c(OC)cc23)c(Cl)cc1Cl
Read-out: enzyme activity
Mode: inhibitor
Tested at: 0.5 µM
Reference: control
target	remaining activity
Tyrosine-protein kinase Srms (SRMS, Homo sapiens, UniProt Q9H3Y6)	90.6%
Ribosomal protein S6 kinase alpha-6 (RPS6KA6, Homo sapiens, UniProt Q9UK32)	62%
Homeodomain-interacting protein kinase 2 (HIPK2, Homo sapiens, UniProt Q9H2X6)	89%
Serine/threonine-protein kinase WNK3 (WNK3, Homo sapiens, UniProt Q9BYP7)	91.8%
Serine/threonine-protein kinase 16 (STK16, Homo sapiens, UniProt O75716)	85.1%
Dual specificity tyrosine-phosphorylation-regulated kinase 3 (DYRK3, Homo sapiens, UniProt O43781)	91.8%
3-phosphoinositide-dependent protein kinase 1 (PDPK1, Homo sapiens, UniProt O15530)	89.8%
MAP kinase-activated protein kinase 3 (MAPKAPK3, Homo sapiens, UniProt Q16644)	98.2%
Homeodomain-interacting protein kinase 4 (HIPK4, Homo sapiens, UniProt Q8NE63)	74.6%
Serine/threonine-protein kinase 17A (STK17A, Homo sapiens, UniProt Q9UEE5)	107%
cAMP-dependent protein kinase catalytic subunit gamma (PRKACG, Homo sapiens, UniProt P22612)	99.2%
Phosphorylase b kinase gamma catalytic chain, skeletal muscle/heart isoform (PHKG1, Homo sapiens, UniProt Q16816)	52.1%
Ribosomal protein S6 kinase alpha-5 (RPS6KA5, Homo sapiens, UniProt O75582)	90.8%
Tyrosine-protein kinase Blk (BLK, Homo sapiens, UniProt P51451)	20.7%
Ephrin type-B receptor 4 (EPHB4, Homo sapiens, UniProt P54760)	12.5%
Mitogen-activated protein kinase kinase kinase kinase 4 (MAP4K4, Homo sapiens, UniProt O95819)	1.03%
Testis-specific serine/threonine-protein kinase 2 (TSSK2, Homo sapiens, UniProt Q96PF2)	83.9%
Ephrin type-A receptor 4 (EPHA4, Homo sapiens, UniProt P54764)	27%
Cyclin-dependent kinase 1, with cyclin B (CDK1, Homo sapiens, UniProt P06493)	95.9%
Cyclin-dependent kinase 6, with cyclin D3 (CDK6, Homo sapiens, UniProt Q00534)	122%
Cyclin-dependent kinase 4, with cyclin D3 (CDK4, Homo sapiens, UniProt P11802)	103%

Block 3
Structure (SMILES): CN([C@@H]1CCc2c(CC(=O)O)c3ccccc3n2C1)S(=O)(=O)c1ccc(F)cc1
Read-out: cell-free assay
Method: competition with immobilised ligand
Tested at: 1 µM
target	remaining binding [%]
Calcium/calmodulin-dependent protein kinase type II subunit alpha (CAMK2A, Homo sapiens, UniProt Q9UQM7)	91
Serine/threonine-protein kinase Sgk3 (SGK3, Homo sapiens, UniProt Q96BR1)	100
Mitogen-activated protein kinase kinase kinase kinase 5 (MAP4K5, Homo sapiens, UniProt Q9Y4K4)	100
Mast/stem cell growth factor receptor Kit (KIT, Homo sapiens, UniProt P10721, L576P)	100
Tyrosine-protein kinase ABL1, phosphorylated (ABL1, Homo sapiens, UniProt P00519, M351T)	100
Ephrin type-B receptor 1 (EPHB1, Homo sapiens, UniProt P54762)	100
Non-receptor tyrosine-protein kinase TNK1 (TNK1, Homo sapiens, UniProt Q13470)	99
Ribosomal protein S6 kinase alpha-2, C-terminal kinase domain (RPS6KA2, Homo sapiens, UniProt Q15349)	100
Casein kinase I isoform alpha (CSNK1A1, Homo sapiens, UniProt P48729)	80
Receptor-interacting serine/threonine-protein kinase 1 (RIPK1, Homo sapiens, UniProt Q13546)	100
Fibroblast growth factor receptor 4 (FGFR4, Homo sapiens, UniProt P22455)	91
Serine/threonine-protein kinase 38 (STK38, Homo sapiens, UniProt Q15208)	100
Dual specificity protein kinase CLK1 (CLK1, Homo sapiens, UniProt P49759)	100
SNF-related serine/threonine-protein kinase (SNRK, Homo sapiens, UniProt Q9NRH2)	100
RAC-alpha serine/threonine-protein kinase (AKT1, Homo sapiens, UniProt P31749)	100
Mitogen-activated protein kinase kinase kinase 11 (MAP3K11, Homo sapiens, UniProt Q16584)	100
Tyrosine-protein kinase ABL1, non-phosphorylated (ABL1, Homo sapiens, UniProt P00519)	100
Epidermal growth factor receptor (EGFR, Homo sapiens, UniProt P00533, G719S)	100
Uncharacterized serine/threonine-protein kinase SBK3 (SBK3, Homo sapiens, UniProt P0C264)	100
Protein kinase C delta type (PRKCD, Homo sapiens, UniProt Q05655)	100
Myosin light chain kinase, smooth muscle (MYLK, Homo sapiens, UniProt Q15746)	100
Mast/stem cell growth factor receptor Kit (KIT, Homo sapiens, UniProt P10721, V559D/V654A)	100
Cyclin-dependent kinase-like 5 (CDKL5, Homo sapiens, UniProt O76039)	74
Serine/threonine-protein kinase NLK (NLK, Homo sapiens, UniProt Q9UBE8)	100
Hepatocyte growth factor receptor (MET, Homo sapiens, UniProt P08581)	100

Block 4
SMILES: COc1ccc2[nH]c3c4[nH]c5ccc(OC)cc5c4c4c(c3c2c1)C(=O)NC4=O
Read-out: binding
Tested at: 1 µM
target	test	remaining binding [%]
Mast/stem cell growth factor receptor Kit (KIT, Homo sapiens, UniProt P10721, V559D/V654A)	–	66
Phosphatidylinositol 4,5-bisphosphate 3-kinase catalytic subunit alpha isoform (PIK3CA, Homo sapiens, UniProt P42336, H1047Y)	–	89
cAMP-dependent protein kinase catalytic subunit beta (PRKACB, Homo sapiens, UniProt P22694)	competition with immobilised ligand	89
Ephrin type-B receptor 3 (EPHB3, Homo sapiens, UniProt P54753)	competition with immobilised ligand	85
Epidermal growth factor receptor (EGFR, Homo sapiens, UniProt P00533, L858R/T790M)	–	35
Homeodomain-interacting protein kinase 4 (HIPK4, Homo sapiens, UniProt Q8NE63)	competition with immobilised ligand	70
TGF-beta receptor type-2 (TGFBR2, Homo sapiens, UniProt P37173)	competition with immobilised ligand	100
Serine/threonine-protein kinase 10 (STK10, Homo sapiens, UniProt O94804)	competition with immobilised ligand	88
Membrane-associated tyrosine- and threonine-specific cdc2-inhibitory kinase (PKMYT1, Homo sapiens, UniProt Q99640)	competition with immobilised ligand	97
Tyrosine-protein kinase CSK (CSK, Homo sapiens, UniProt P41240)	competition with immobilised ligand	95
Mitogen-activated protein kinase kinase kinase 12 (MAP3K12, Homo sapiens, UniProt Q12852)	–	77
Phosphatidylinositol 4,5-bisphosphate 3-kinase catalytic subunit alpha isoform (PIK3CA, Homo sapiens, UniProt P42336, E545A)	–	100
